Assay results pooled from the literature.
Lines come from different studies, so protocols differ. ± marks the error that the study gave.
Organism: Plasmodium falciparum

With `C[C@H]1[C@@H](CCCOCc2cnnn2CCC[C@H]2O[C@@H]3O[C@@]4(C)CC[C@H]5[C@H](C)CC[C@@H]([C@H]2C)[C@@]35O4)O[C@@H]2O[C@@]3(C)CC[C@H]4[C@H](C)CC[C@@H]1[C@@]24O3` the selectivity index was greater than 4.68 (W2; 72 h; relative to: HepG2 over blood-stage parasites).
`COc1cc(C)c(-c2ccc3c(c2O)[C@@H](C)N[C@H](C)C3)c2ccc(-c3c(C)c(-c4ccc5c(c4O)[C@@H](C)N[C@H](C)C5)c4cccc(OC)c4c3O)c(O)c12` has an inhibition of greater than 70% (gametocyte viability, luciferase reporter; NF54-Pfs16-GFP-Luc, late stage IV/V; 5 µM, 48 h).
`C[OH+][Cu-2]12[O]C(c3cn(-c4ccccc4)nc3-c3ccc(C)cc3)=N[N+]1=C(C)c1c(cc(C)oc1=O)[O]2` (stereo not drawn) has a parasitaemia of 0% (3D7; 100 µg/mL, 72 h).
Under AMA1 secretion, `Nc1ncnc2c1c(-c1ccc(Oc3ccccc3)cc1)cn2C1CCCC1` is recorded as “no effect” (non-permeabilizing IFA; 60 µM).
With `CC[C@H](C)[C@@H]1NC(=O)[C@H](CCCCN)NC(=O)[C@H](CCCCN)NC(=O)[C@H](Cc2ccc(O)cc2)NC(=O)[C@H](CC(C)C)NC(=O)[C@@H]2CCCN2C(=O)[C@H](C)NC(=O)CNC(=O)CNC(=O)[C@H](CO)NC(=O)CNC(=O)CNC(=O)[C@H](CO)NC(=O)[C@H](CCC(=O)O)NC(=O)[C@H](CC(C)C)NC(=O)[C@H](CC(C)C)NC(=O)[C@H](CCCCN)NC(=O)[C@H](CCCCN)NC(=O)[C@H]([C@@H](C)CC)NC(=O)[C@H]([C@@H](C)CC)NC(=O)[C@H](CCCCN)NC(=O)[C@H](CCCCN)NC(=O)[C@H](Cc2ccc(O)cc2)NC(=O)[C@H](CC(C)C)NC(=O)[C@@H]2CCCN2C(=O)[C@H](C)NC(=O)CNC(=O)[C@@H]2CSSC[C@H](NC(=O)[C@H](CC(C)C)NC(=O)[C@H](CCCCN)NC(=O)[C@H](CCCCN)NC(=O)[C@H]([C@@H](C)CC)NC1=O)C(=O)N[C@@H](CCCCN)C(=O)N[C@@H](CC(N)=O)C(=O)NCC(=O)N2` the selectivity index was 1.7 ± 0.3 (3D7; 5 mg/mL Albumax II; relative to: RBC HC10 over P. falciparum IC50).
With `CCN(CC)c1ccc2nc3c4ccccc4/c(=N/c4ccncc4)cc-3oc2c1` the growth inhibition was greater than 99% (NF54; 62.5 ng/mL, 24 h, rings, trophozoites, schizonts).
`c1ccc2c(NCCNc3ncnc4cc(OCC5CCN(CCNc6ccnc7ccccc67)CC5)ccc34)cccc2c1` gave a parasites killed of no more than 90% (NF54; concentration not given, 6 h, early ring stage, IC50 concentration).
The IC50 of `CCCCN=Cc1[nH]c(-c2ccc[nH]2)cc1OC` is reported as 210 nM (parasite growth, SYBR Green I fluorescence; D6, chloroquine-sensitive).
`COc1ccc(-c2cn(C3CCCC3)c3ncnc(N)c23)cc1` — result for intracellular growth: “no effect” (invasion IC50, ring stage).
`COc1cc(O)c(-c2cc(-c3cc(-c4c(O)cc5c(c4OC)[C@H](C)N[C@H](C)C5)c4cc(C)cc(OC)c4c3O)c(O)c3c(OC)cc(C)cc23)c2c1[C@H](C)N[C@H](C)C2` has an inhibition of greater than 70% (gametocyte viability, luciferase reporter; NF54-Pfs16-GFP-Luc, late stage IV/V; 5 µM, 48 h).
The selectivity ratio of `Cc1ccc(CNC(=O)[C@H](CCc2ccccc2)NC(=O)[C@@H](N)CCc2ccccc2)cc1` is reported as greater than 6 (D10; 72 h; relative to: HFF EC50 over P. falciparum EC50).
The inhibition of `Cc1cc2[nH]c(C(=O)Nc3ccccc3C)c(CN3CCOCC3)c2s1` is reported as 42% (parasite growth, [3H]-hypoxanthine incorporation; asexual erythrocytic stages, 3D7; 50 µM, 48 h).
The parasitaemia of `C[OH+][Cu-2]12[O]C(c3cn(-c4ccccc4)nc3-c3ccc(F)cc3)=N[N+]1=C(C)c1c(cc(C)oc1=O)[O]2` (stereo not drawn) is reported as 0% (3D7; 100 µg/mL, 72 h).
For `Nc1ccc(C(=O)/C=C/c2ccccc2F)cc1`, antiplasmodial activity read “active” (concentration not given).
The IC50 of `CC1=CC(c2ccc[nH]2)=NC1=CNC12CC3CC(CC(C3)C1)C2` is reported as 1.3 nM (parasite growth, SYBR Green I fluorescence; D6, chloroquine-sensitive).
`CC[C@H](C)[C@@H]1NC(=O)[C@H](CCCCN)NC(=O)[C@H](CCCCN)NC(=O)[C@H](Cc2ccc(O)cc2)NC(=O)[C@H](CC(C)C)NC(=O)[C@@H]2CCCN2C(=O)[C@H](C)NC(=O)CNC(=O)CNC(=O)[C@H](CO)NC(=O)CNC(=O)CNC(=O)[C@H](CO)NC(=O)[C@H](CCC(=O)O)NC(=O)[C@H](CC(C)C)NC(=O)[C@H](CC(C)C)NC(=O)[C@H](CCCNC(=N)N)NC(=O)[C@H](CCCCN)NC(=O)[C@H]([C@@H](C)CC)NC(=O)[C@H]([C@@H](C)CC)NC(=O)[C@H](CCCCN)NC(=O)[C@H](CCCCN)NC(=O)[C@H](Cc2ccc(O)cc2)NC(=O)[C@H](CC(C)C)NC(=O)[C@@H]2CCCN2C(=O)[C@H](C)NC(=O)CNC(=O)CNC(=O)[C@H](CO)NC(=O)CNC(=O)CNC(=O)[C@H](CO)NC(=O)[C@H](CCC(=O)O)NC(=O)[C@H](CC(C)C)NC(=O)[C@H](CC(C)C)NC(=O)[C@H](CCCNC(=N)N)NC(=O)[C@H](CCCCN)NC(=O)[C@H]([C@@H](C)CC)NC1=O` has a selectivity index of 2.8 ± 0.9 (3D7; 5 mg/mL Albumax II; relative to: RBC HC10 over P. falciparum IC50).
`Cc1ccc(CNC(=O)[C@@H]2Cc3cccc(c3)Oc3cccc(c3)C[C@H](N)C(=O)N[C@@H](CCc3ccccc3)C(=O)N2)cc1` gave an EC50 of 1020 nM (1 h pulse, synchronized schizont stage).
`CNC(=O)[C@@H]1Cc2c([nH]c3ccccc23)[C@@H](c2ccc(Cl)cc2Cl)N1` — result for “CDP-ME level reduction”: 93 ± 5% (schizont stage; 1 µM, 2 h; relative to: untreated).
Under “JC-1 red/green ratio”, `CC[C@H](C)[C@H](NC(=O)[C@@H](NC(=O)[C@H](Cc1ccc(O)cc1)NC(=O)[C@H](CCCCN)NC(=O)[C@H](CCCCN)NC(=O)[C@H](CC(C)C)NC(=O)[C@H](CC(=O)O)NC(=O)[C@H](Cc1ccc(O)cc1)NC(=O)[C@H](CCC(N)=O)NC(=O)[C@H](CCCCN)NC(=O)[C@@H](NC(=O)[C@H](Cc1ccccc1)NC(=O)[C@H](CCCCN)NC(=O)[C@H](CCCCN)NC(=O)[C@H](Cc1c[nH]c2ccccc12)NC(=O)[C@H](CCCCN)NC(=O)[C@H](CCSC)NC(=O)[C@H](CCCNC(=N)N)NC(=O)[C@H](CCCNC(=N)N)NC(=O)[C@H](CC(N)=O)NC(=O)[C@H](CCC(N)=O)NC(=O)[C@H](Cc1ccccc1)NC(=O)[C@H](Cc1c[nH]c2ccccc12)NC(=O)[C@@H](NC(=O)[C@H](CCCCN)NC(=O)[C@@H](NC(=O)[C@H](CCC(N)=O)NC(=O)[C@@H](N)CCCNC(=N)N)[C@@H](C)CC)[C@@H](C)CC)[C@@H](C)CC)[C@@H](C)CC)C(=O)O` is recorded as roughly 0.4 (mitochondrial membrane potential; 90 µM, 3 h).
For `CCCCN1C(=O)c2ccc3c4c(ccc(c24)C1=O)C(=O)N(CCNc1c2ccc(Cl)cc2nc2ccc(OC)cc12)C3=O`, the inhibition was roughly 80% (parasite growth, SYBR Green; 3D7; 50 nM, 12 h, blood stage).
With `C[OH+][Cu-2]12[O]C(c3cn(-c4ccccc4)nc3-c3ccccc3)=N[N+]1=C(C)c1c(cc(C)oc1=O)[O]2` (stereo not drawn) the parasitaemia was 0% (3D7; 12.5 µg/mL, 72 h).
For `Cc1ccc(CNC(=O)[C@@H](NC(=O)[C@H](CCc2ccccc2)NC(=O)[C@@H](NC(=O)c2cnc(C)cn2)C(C)(C)C)C(C)C)cc1`, the selectivity ratio was 45 (D10; 72 h; relative to: HFF EC50 over P. falciparum EC50).
`CCOC(=O)c1cn(-c2nc(C(F)(F)F)n[nH]2)nn1` has an inhibition of greater than 75% (parasite growth; NF54; 1 µM, gametocyte).
`COc1cc2nc(N3CCCCC3)nc(NC3CCN(C)CC3)c2cc1OC` — result for H3K4me3 level: “decreased” (Western blot; 3D7; 5-fold IC50, 12 h; relative to: DMSO).
For `c1ccc(Cn2c(N3CCNCC3)nc3cccnc32)cc1`, antiplasmodial activity read “inactive” (pLDH; NF54; concentration not given, 48 h).
`CC1=CC(c2ccc[nH]2)=NC1=CNC1CCCCCC1` gave an IC50 of greater than 250 nM (parasite growth, SYBR Green I fluorescence; D6, chloroquine-sensitive).
`CN(C)Cc1cc(/C=C/C(=O)c2ccc(Cl)cc2)ccc1O` has an EC50 ratio of roughly 1400 fold (pLDH; 3D7; relative to: compound over chloroquine).
`Cc1ccc(NCC(=O)Nc2ccc(F)c(Cl)c2)cc1C(=O)N1CCOCC1` has an EC50 of greater than 50000 nM (parasite growth; 3D7; blood stage).
Under “antiplasmodial activity class”, `CC(=O)O[C@@H]1C[C@H]2C(C)(C)C(=O)C=C[C@]2(C)[C@H]2CC[C@]3(C)C(=CC[C@H]3C3=CC(O)OC3=O)[C@@]21C` (stereo partly drawn) is recorded as “active” (parasite growth; D6 and W2; concentration not given).
The parasitaemia of `C[OH+][Cu-2]12[O]C(c3cn(-c4ccccc4)nc3-c3ccc(Br)cc3)=N[N+]1=C(C)c1c(cc(C)oc1=O)[O]2` (stereo not drawn) is reported as 1.9% (3D7; 100 µg/mL, 72 h).
With `Cc1ccc(NCC(=O)Nc2ccc(F)c(Cl)c2)cc1CN1CCOCC1` the EC50 was greater than 50000 nM (parasite growth; 3D7; blood stage).
With `CC(C)C1=CC(=CNC2CCCCCC2)N=C1c1ccc[nH]1` the IC50 was greater than 2500 nM (parasite growth, SYBR Green I fluorescence; D6, chloroquine-sensitive).
`C[OH+][Cu-2]12[O]C(c3cn(-c4ccccc4)nc3-c3ccc(Cl)cc3)=N[N+]1=C(C)c1c(cc(C)oc1=O)[O]2` (stereo not drawn) gave a parasitaemia of 1.9% (3D7; 100 µg/mL, 72 h).

Repeated from above:
`CC1=CC(c2ccc[nH]2)=NC1=CNC1CCCCCC1` gave an IC50 of greater than 250 nM (parasite growth, SYBR Green I fluorescence; D6, chloroquine-sensitive).
`COc1cc2nc(N3CCCCC3)nc(NC3CCN(C)CC3)c2cc1OC` — result for H3K4me3 level: “decreased” (Western blot; 3D7; 5-fold IC50, 12 h; relative to: DMSO).
